# Measured values gathered from unrelated publications.
# “And” joins repeats or separate records; there may be more than shown. ± gives the spread as reported.
Structure (SMILES),tested on,assay,system,conditions,scale,endpoint,result
CC(=O)N[C@@H](CCCNC(=N)N)C(=O)N[C@@H](CCCCN)C(=O)N[C@@H](CCC(=O)N=S(c1ccc(Cl)cc1)c1ccccc1O)C(=O)N[C@H](C(=O)N[C@@H](Cc1ccc(O)cc1)C(N)=O)C(C)C (stereo partly drawn),,HPLC,95% FBS in PBS,"0.5 mM, 6 h, pH 7.4, 37 °C",,hydrolysis,6%
CC[C@H](C)[C@H](NC(=O)[C@H](CCCCN)NC(=O)CNC(=O)[C@H](CC(C)C)NC(=O)[C@H](Cc1ccccc1)NC(=O)[C@H](CCCCN)NC(=O)[C@H](CO)NC(=O)[C@H](Cc1ccccc1)NC(=O)[C@H](Cc1c[nH]c2ccccc12)NC(=O)[C@H](CCC(N)=O)NC(=O)[C@@H](NC(=O)[C@H](Cc1ccccc1)NC(=O)CCCCCNC(=O)CN1CCN(CC(=O)O)CCN(CC(=O)O)CCN(CC(=O)O)CC1)C(C)C)C(=O)N[C@@H](CCC(=O)O)C(=O)N1CCC[C@H]1C(=O)N[C@@H](CC(=O)O)C(=O)N[C@H](C(=O)N[C@@H](CO)C(=O)N[C@@H](CCC(N)=O)C(=O)N[C@H](C(=O)N[C@@H](CCC(N)=O)C(=O)N[C@@H](CC(=O)O)C(=O)N1CCC[C@H]1C(=O)N[C@@H](CC(N)=O)C(=O)N[C@@H](CC(=O)O)C(=O)N[C@@H](CCC(N)=O)C(=O)N[C@@H](Cc1ccc(O)cc1)C(=O)N[C@@H](CCC(=O)O)C(=O)N1CCC[C@H]1C(=O)N[C@@H](Cc1ccccc1)C(=O)O)C(C)C)C(C)C [copper-64 labelled],,,"C57BL/6 mice, lung",together with: LPS 3 mg/kg intratracheal,,tissue uptake,4.14 ± 0.09 %ID/g
CC(CCC(=O)NCC(=O)O)C1CCC2C3C(O)CC4CC(OC5OC(C(=O)O)C(O)C(O)C5O)CCC4(C)C3CCC12C (stereo not drawn),,item: glucuronide to parent ratio,"women, plasma",dose not given,relative to: C/C over T/T,ratio of metabolic ratios,8.97
Cc1ccc(N2CCN(C)CC2)cc1C(=O)N[C@H](C)c1cc(-c2cnn(C)c2)nc2ccccc12,African green monkey cells,,,31.25 µM,,viability,87.1%
CC(C)(CCCC/C=C/CCCCCC(C)(C)C(=O)O)C(=O)O,,,"ICR mice, both sexes","oral, dose not given, 24 h",,plasma concentration,524 ng/mL
CCCCCCCCCCCCCCCC(=O)N[C@@H](CCC(=O)NCCOCCOCCC(=O)NCCOCCOCCC(=O)NCCCC[C@H](NC(=O)[C@H](CC(=O)O)NC(=O)[C@H](CC(C)C)NC(=O)[C@H](Cc1ccc(O)cc1)NC(=O)[C@H](CCCCN)NC(=O)[C@H](CO)NC(=O)[C@H](Cc1ccc(O)cc1)NC(=O)[C@H](CC(=O)O)NC(=O)[C@H](CO)NC(=O)[C@@H](NC(=O)[C@H](Cc1ccccc1)NC(=O)[C@@H](NC(=O)CNC(=O)[C@H](CCC(N)=O)NC(=O)[C@@H](CO)NC(=O)[C@@H](N)Cc1c[nH]cn1)[C@@H](C)O)[C@@H](C)O)C(=O)N[C@@H](CCCNC(=N)N)C(=O)N[C@@H](CCCNC(=N)N)C(=O)N[C@@H](C)C(=O)N[C@@H](CCC(N)=O)C(=O)N[C@@H](CC(=O)O)C(=O)N[C@@H](Cc1ccccc1)C(=O)N[C@H](C(=O)N[C@@H](CCC(N)=O)C(=O)N[C@@H](Cc1c[nH]c2ccccc12)C(=O)N[C@@H](CC(C)C)C(=O)N[C@@H](CC(C)C)C(=O)N[C@@H](CC(N)=O)C(=O)N[C@H](C(=O)NCC(=O)NCC(=O)N1CCC[C@H]1C(=O)N[C@@H](CO)C(=O)N[C@@H](CO)C(=O)NCC(=O)N[C@@H](C)C(=O)N1CCC[C@H]1C(=O)N1CCC[C@H]1C(=O)N1CCC[C@H]1C(=O)N[C@@H](CO)C(N)=O)[C@@H](C)O)C(C)C)C(=O)O,,,"rhesus monkey, male, plasma","subcutaneous, 300 µg/kg, day 28, toxicokinetics, median",,Tmax,2 h
O=C(c1cc(Cc2n[nH]c(=O)c3ccccc23)ccc1F)N1CC(CNC2CC2)C1,,,male Wistar Han rat,"oral, 60 mg/kg, day 28",,Cmax,4530 ng/mL
COc1cnc2cccc(N3CCc4c(cc(Cn5ccnc5)cc4-c4cn(C)nc4C(F)(F)F)C3=O)c2c1,,,"BALB/c nude mice, MV4-11 xenograft","intraperitoneal, 75 mg/kg, day 35",,body weight,22.7 g and 23.2 g and 22.1 g and 23 g
CN1Cc2cc(Cl)ccc2-n2c(nnc2C2CCN(c3cccc([18F])n3)CC2)C1,,,"C57BL/6 mouse male, liver","intravenous, 3.7 MBq, 30 min",,tissue uptake,19.9 ± 0.62 %ID/g
O=C1NC2(CC2)COc2ncc(F)cc2[C@H]2COCCN2c2ccn3ncc1c3n2,,,"Sprague-Dawley rat, female, serum","oral, 5 mg/kg/day, 4 weeks daily, end of recovery period",,aspartate aminotransferase activity,88.3 ± 5.8 U/L
N=C(N)NCCC[C@H](NC(=O)[C@H](CCCNC(=N)N)NC(=O)[C@H](CCCNC(=N)N)NC(=O)[C@H](CCC(N)=O)NC(=O)[C@H](CCCNC(=N)N)NC(=O)[C@H](CCCNC(=N)N)NC(=O)[C@H](CCCCN)NC(=O)[C@H](CCCCN)NC(=O)[C@H](CCCNC(=N)N)NC(=O)CNC(=O)[C@H](Cc1ccc(O)cc1)NC(=O)[C@H](Cc1ccccc1)NC(=O)[C@H](Cc1ccccc1)NC(=O)[C@H](Cc1ccccc1)NC(=O)OCC1c2ccccc2-c2ccccc21)C(=O)O,,ANS fluorescence,10 mM PBS,"pH 7.4, together with: ANS 10 µM",,critical aggregation concentration,~21.4 µM
CCCC[C@H]1C(=O)N(C)[C@@H](CCCC)C(=O)N[C@@H](CCCNC(=O)CN2CCN(CC(=O)O)CCN(CC(=O)O)CCN(CC(=O)O)CC2)C(=O)N[C@H](C(=O)NCC(N)=O)CSCC(=O)N[C@@H](Cc2ccc(O)cc2)C(=O)N(C)[C@@H](C)C(=O)N[C@@H](CC(N)=O)C(=O)N2CCC[C@H]2C(=O)N[C@@H](Cc2c[nH]cn2)C(=O)N[C@@H](CC(C)C)C(=O)N(C)CC(=O)N[C@@H](Cc2c[nH]c3ccccc23)C(=O)N[C@@H](CO)C(=O)N[C@@H](Cc2c[nH]c3ccccc23)C(=O)N1C [gallium-68 labelled],,,"NOD/SCID mice, CHO-hPD-L1 xenograft, tumour over liver","iv, dose not given, 30 min",relative to: tumour over liver,tissue-to-tissue ratio,1.12 ± 0.14
Cc1ccc(OCCN(C)C)cc1C(=O)N[C@H](C)c1cc(-c2ccnn2C)nc2ccccc12,Vero E6,,,15.62 µM,,viability,91.2% and 92.3%
C[C@H](NCc1ccc(-c2ccc(C(F)(F)F)cc2)cc1)C(N)=O,,metabolic stability,"rat, liver microsomes","1 µM, 30 min, pH 7.4",,compound remaining,60%
CSCC[C@H](NC(=O)CNC(=O)[C@H](CCCCN)NC(=O)[C@H](CC(C)C)NC(=O)[C@@H]1CCCN1C(=O)[C@H](CO)NC(=O)[C@H](Cc1c[nH]cn1)NC(=O)[C@H](Cc1c[nH]c2ccccc12)NC(=O)[C@H](CCCNC(=N)N)NC(=O)[C@H](CC(C)C)NC(=O)[C@H](CCCNC(=N)N)NC(=O)[C@H](Cc1c[nH]c2ccccc12)NC(=O)[C@H](CS)NC(=O)CCCCCNC(=O)CN1CCN(CC(=O)O)CCN(CC(=O)O)CCN(CC(=O)O)CC1)C(=O)O [copper-64 labelled],,ex vivo biodistribution,"male C57BL/6J mice, testis","intravenous, 1.85 MBq, 30 h, B16-F10 tumour-bearing",,tissue uptake,0.8 %ID/g

# Some of these lines once more:
Structure (SMILES),tested on,assay,system,conditions,scale,endpoint,result
CN1Cc2cc(Cl)ccc2-n2c(nnc2C2CCN(c3cccc([18F])n3)CC2)C1,,,"C57BL/6 mouse male, liver","intravenous, 3.7 MBq, 30 min",,tissue uptake,19.9 ± 0.62 %ID/g
Cc1ccc(N2CCN(C)CC2)cc1C(=O)N[C@H](C)c1cc(-c2cnn(C)c2)nc2ccccc12,African green monkey cells,,,31.25 µM,,viability,87.1%
